Measured values of several laboratories.
Every numbered part comes from another study and shows a few of its results, in no order. Values joined by “and” are separate records of one study, mostly repeats; a detail may differ. Positions count from the first letter of the parent shown.
UniProt Q9BYT3, sequence (whole entry, looked up): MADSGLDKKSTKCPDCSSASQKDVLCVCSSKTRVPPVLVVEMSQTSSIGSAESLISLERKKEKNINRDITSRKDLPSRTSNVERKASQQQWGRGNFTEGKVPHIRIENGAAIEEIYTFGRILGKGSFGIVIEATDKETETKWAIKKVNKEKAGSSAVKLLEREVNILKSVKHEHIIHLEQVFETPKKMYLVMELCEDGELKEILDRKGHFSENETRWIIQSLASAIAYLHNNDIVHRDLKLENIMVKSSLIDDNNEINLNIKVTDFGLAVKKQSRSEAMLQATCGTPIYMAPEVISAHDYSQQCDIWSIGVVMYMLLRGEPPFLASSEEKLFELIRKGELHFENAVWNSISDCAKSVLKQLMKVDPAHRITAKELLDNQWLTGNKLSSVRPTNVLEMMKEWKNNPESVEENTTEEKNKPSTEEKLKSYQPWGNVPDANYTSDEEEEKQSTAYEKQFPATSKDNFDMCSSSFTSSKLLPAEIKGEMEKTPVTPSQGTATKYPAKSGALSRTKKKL

Sample 1
Target: Calcium/calmodulin-dependent protein kinase type II subunit alpha (CAMK2A, Homo sapiens, UniProt Q9UQM7)
UniProt Q9UQM7, sequence (whole entry, looked up): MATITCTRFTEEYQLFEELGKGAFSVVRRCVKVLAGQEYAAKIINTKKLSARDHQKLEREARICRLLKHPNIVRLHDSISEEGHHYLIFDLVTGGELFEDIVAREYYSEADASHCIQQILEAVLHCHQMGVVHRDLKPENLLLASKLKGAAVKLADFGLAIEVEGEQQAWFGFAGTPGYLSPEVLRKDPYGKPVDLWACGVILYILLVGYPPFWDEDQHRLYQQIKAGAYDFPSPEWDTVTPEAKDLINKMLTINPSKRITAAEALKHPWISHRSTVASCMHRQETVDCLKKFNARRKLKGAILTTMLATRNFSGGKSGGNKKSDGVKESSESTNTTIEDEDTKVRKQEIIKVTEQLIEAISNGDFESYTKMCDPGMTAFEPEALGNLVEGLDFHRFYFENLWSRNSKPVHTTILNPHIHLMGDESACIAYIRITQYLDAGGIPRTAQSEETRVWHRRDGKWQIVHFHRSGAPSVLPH
Read-out: enzyme activity
Action: inhibitor
Concentration: 10 µM
The inhibition of `CC(=O)O[C@H]1C(C)=C[C@]23C(=O)[C@@H](C=C(C)[C@@H](OC(=O)c4ccccc4)[C@]12O)[C@H]1[C@@H](C[C@H]3C)C1(C)C` is reported as -17%.
With `COc1cc2c3c(c1OC)Oc1ccc(cc1)C[C@@H]1c4c(cc(OC)c(OC)c4Oc4ccc(cc4)C[C@H]3N(C)CC2)CCN1C` the inhibition was -5%.
`CC(C)=CCC[C@](C)(O)[C@H]1CC[C@]2(C)[C@@H]1[C@H](O)C[C@@H]1[C@@]3(C)CC[C@H](O)C(C)(C)[C@@H]3[C@@H](O[C@@H]3O[C@H](CO)[C@@H](O)[C@H](O)[C@H]3O)C[C@]12C` gave an inhibition of -14%.

Sample 2
Target: CCNB2, cyclin fold, Cln2 fusion (human)
Technique: yeast growth competition, sequencing
Medium: yeast
Setting: weak parent motif
Baseline: not given
Reading: higher = stronger binding
Starting sequence: viral docking peptide; KGVKRKLFAEDSS; partner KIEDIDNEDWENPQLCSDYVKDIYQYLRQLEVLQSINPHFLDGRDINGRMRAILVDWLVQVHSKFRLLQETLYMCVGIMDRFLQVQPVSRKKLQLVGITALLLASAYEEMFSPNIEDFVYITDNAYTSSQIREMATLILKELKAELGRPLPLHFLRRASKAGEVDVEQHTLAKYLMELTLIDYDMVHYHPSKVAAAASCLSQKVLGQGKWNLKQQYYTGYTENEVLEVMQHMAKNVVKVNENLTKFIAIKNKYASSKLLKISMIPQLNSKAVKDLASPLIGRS
For `G2Q`, “normalised enrichment score” read 0.951.
`A9D` — result for “normalised enrichment score”: 0.969.
`S12L` — result for “normalised enrichment score”: 0.856.
`V3Q` — result for “normalised enrichment score”: -0.144.
For `L7D`, “normalised enrichment score” read 0.0784.
For `A9S`, “normalised enrichment score” read 0.578.
For `L7G`, “normalised enrichment score” read 0.379.
`K6L` — result for “normalised enrichment score”: 0.481.

Sample 3
SMILES: CC(C)S(=O)(=O)c1ccc2nccc(Nc3ccc4sc(C5CCCC5)nc4c3)c2c1.Cl
The viability was 90.2% and 88.3% and 89.9% and 88.1% and 91.8% (L929; CCK-8; 25 µM, with: zVAD).
The viability was 102% and 104% and 103% and 108% (L929; CCK-8; 6.25 µM, with: zVAD).
It gave 93% and 94.3% and 92.7% for viability (L929 RIPK3 knockout; 25 µM, with: zVAD).
For L929; CCK-8; 6.25 µM: viability read 107% and 110% and 106%.
It gave 109% and 103% and 99.7% and 102% for viability (L929 RIPK3 knockout; 0.391 µM).
It gave 97% and 102% and 109% and 106% and 101% for viability (L929 RIPK3 knockout; 12.5 µM).
L929; CCK-8; 1.563 µM — viability: 102% and 98.7% and 97.5%.
It gave 91.8% and 95.9% and 92.8% and 94.3% for viability (L929 RIPK3 knockout; 25 µM).
It gave 106% and 101% and 104% and 96.2% and 97.1% for viability (L929 RIPK3 knockout; 1.563 µM).

Single results of other studies
The remaining activity of `COc1ccc2c(c1)c(C1=C(c3c[nH]c4ccccc34)C(=O)NC1=O)cn2CCCN(C)C` is reported as 56.2% (Serine/threonine-protein kinase 33 (STK33, Homo sapiens, UniProt Q9BYT3); enzyme activity, inhibitor, radiometric; 0.5 µM).
